Experimental data collected from several papers.
Numbered parts are unrelated; each lists some results of a single study. Changes are numbered by the printed parent chain.

Block 1
Target: Sal-like protein 4, full length isoform A (SALL4, Homo sapiens, UniProt Q9UJQ4, residues 1-1053)
UniProt Q9UJQ4, sequence (whole entry, looked up): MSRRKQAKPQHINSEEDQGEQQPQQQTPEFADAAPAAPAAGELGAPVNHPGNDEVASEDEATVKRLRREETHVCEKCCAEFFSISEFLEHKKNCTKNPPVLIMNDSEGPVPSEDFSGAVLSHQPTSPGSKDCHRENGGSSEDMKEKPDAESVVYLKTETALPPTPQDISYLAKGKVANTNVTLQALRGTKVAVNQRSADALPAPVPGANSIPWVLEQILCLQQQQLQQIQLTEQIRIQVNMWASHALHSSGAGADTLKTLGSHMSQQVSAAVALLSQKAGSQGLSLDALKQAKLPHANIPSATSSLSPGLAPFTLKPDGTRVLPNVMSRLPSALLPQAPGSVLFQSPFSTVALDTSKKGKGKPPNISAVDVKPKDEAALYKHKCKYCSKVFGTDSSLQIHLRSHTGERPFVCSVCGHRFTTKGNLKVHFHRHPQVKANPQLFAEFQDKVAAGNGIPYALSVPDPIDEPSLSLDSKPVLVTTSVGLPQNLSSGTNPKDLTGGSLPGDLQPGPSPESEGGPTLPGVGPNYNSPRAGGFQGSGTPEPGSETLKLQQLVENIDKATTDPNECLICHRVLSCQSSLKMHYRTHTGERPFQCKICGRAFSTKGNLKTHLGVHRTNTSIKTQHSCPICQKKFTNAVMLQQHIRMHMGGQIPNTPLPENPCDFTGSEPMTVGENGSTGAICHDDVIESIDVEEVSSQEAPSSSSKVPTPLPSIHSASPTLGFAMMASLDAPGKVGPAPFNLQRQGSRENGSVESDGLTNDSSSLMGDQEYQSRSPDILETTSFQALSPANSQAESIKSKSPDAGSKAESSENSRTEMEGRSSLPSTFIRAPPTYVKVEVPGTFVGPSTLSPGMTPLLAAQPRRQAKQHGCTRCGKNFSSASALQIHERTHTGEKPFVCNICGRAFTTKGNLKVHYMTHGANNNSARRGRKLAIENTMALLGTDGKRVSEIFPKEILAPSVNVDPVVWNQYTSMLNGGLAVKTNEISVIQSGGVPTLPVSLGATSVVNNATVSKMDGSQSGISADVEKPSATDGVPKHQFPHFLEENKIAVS
Method: universal PBM
Form: double-stranded DNA, one strand shown
Sample: in vitro
Concentration: 600 nM
Notes: 8-mer, flanks averaged, mean of replicates
Direction: higher = stronger binding
Oligonucleotide	E-score
GGCAGCCA	-0.115
GCACAACC	-0.228
AACGGACG	-0.194
GTTCAAAC	0.0545
GAGTGTGC	0.0322
ACACCACG	-0.204
AGCGAGCA	-0.127
TGCCCGAA	-0.0581
AATTGCTA	0.254
CACATCAC	0.042
ATTCACGG	0.0421
ACTTTATA	0.361
AGATGTAC	0.0659
CCTCCACA	-0.0339
CAATTAGC	0.159
CGATCCCC	-0.269
CCGTAAAG	-0.0714
GCTTGCTA	-0.0992
ACAAGGCA	-0.0181
CCCATGCA	-0.00936
AGGTCCTA	-0.0443
CGACTCCG	-0.358
CTGATGAA	0.116
AGACATTC	0.183
AGGTTTCA	0.0129

Block 2
Target: Centromere-binding protein 1, full length, His-tagged (CBF1, Saccharomyces cerevisiae, UniProt P17106, residues 1-351)
UniProt P17106, sequence (whole entry, looked up): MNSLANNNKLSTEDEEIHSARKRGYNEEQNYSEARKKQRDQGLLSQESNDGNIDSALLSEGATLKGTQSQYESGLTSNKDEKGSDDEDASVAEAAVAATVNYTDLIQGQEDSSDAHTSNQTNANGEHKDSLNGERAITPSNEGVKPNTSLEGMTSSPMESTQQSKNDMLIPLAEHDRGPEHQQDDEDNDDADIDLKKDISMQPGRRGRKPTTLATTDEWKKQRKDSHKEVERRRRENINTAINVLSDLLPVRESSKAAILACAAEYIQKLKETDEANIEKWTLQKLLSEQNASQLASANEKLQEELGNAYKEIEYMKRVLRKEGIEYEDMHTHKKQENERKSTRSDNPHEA
Method: competition protein-binding microarray
Form: double-stranded DNA, one strand shown
Sample: in vitro
Concentration: 2 µM
Notes: whole 60-bp probe, lowest competitor level
Together with: Pho4 competitor, 0.05 µM
Direction: higher = stronger binding
Constant ends, left off below: … GTCTTGATTCGCTTGACGCTGCTG
Oligonucleotide	fluorescence intensity [a.u.]
CTGGGCCTCCAGCGCCACGTGCCGCCGCTGGCACTG	563
TAGCCGCTAAGGGTAGACATGACGCTGCTGTTCATC	60.9
CCAGAACGCCCAGAAAACGTGAAGGACACTACATAC	114
ACAAATTAATGGCACAACGTGGGTATGACGAAAAAG	105
AAATTACTAAGTTGGAATGTGGGTGACGCCGTATGA	68.6
CTTTCCCGATCTTGGTTCGTGGGTGTAGCACATTTG	63.3
CTTTCCCGATCTTTTCACGTGACGTTAGCACATTTG	3880
GGCCAAAGTGTTCGTCACAAAACAGTGGTCCTATAT	110
CGGGGTTAAGTTTGAAAGGTGGGTGGCTTGCAGCAG	54.2
CAATAGCCGGGCTGGCACGCTACTAGAAGGCGGTTC	65.4
GTAATAGTACCTTAACACATGACGAAGATGAAAATT	370
CTTTCCCGATCTTGCACCGTGGGTGTAGCACATTTG	63
GGTGGGCTATACTTCCGTGTGACGGATTTCACAAAG	102
TGCGCAACAACTTGATGAGTGGGTGTATGTCTAGAA	66.7
TGCCTCTGCGCTTTGCACGTTCAAAAGAAAAGCATA	91.7
TCTCCTAGGGGCAGTCTCGTGCTAATTAGCAGCTTT	225
TGCGCAACAACTTGTTGTGTGGGTGTATGTCTAGAA	75.1
GTTGATTTGAACAGAAGCGTGGTGAACGGCTTTGAT	78.6
CGGGGTTAAGTTTTTCACGTGCTGTGCTTGCAGCAG	895
CGTCCTAGTGATTGCGTAGTGGGTGCCATGAGGAAG	82.6

Block 3
Target: Histone acetyltransferase KAT6A, winged helix 1, GST fusion (KAT6A, Homo sapiens, UniProt Q92794, residues 1-85)
Method: protein binding microarray
Form: double-stranded DNA, one strand shown
Sample: in vitro
Concentration: not given
Notes: 8-mer, flanks averaged, mean of 2 arrays, mostly near background
Baseline: not given
Direction: higher = stronger binding
Construct (chain): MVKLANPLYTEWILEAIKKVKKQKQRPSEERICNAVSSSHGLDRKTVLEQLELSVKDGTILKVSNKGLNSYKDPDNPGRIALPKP
Oligonucleotide	E-score
ATATCGCA	-0.0275
AGGCTGAT	-0.182
GACCACCC	-0.0807
CCCTTGAC	0.0429
ACATCCAT	-0.0813
GTGATATA	-0.0127
ACGCGGGG	0.286
CGGCCACC	0.344
AATCACCG	0.132
CTGGCCCC	-0.117
CGTTAGTA	-0.0175
AAAACCGA	-0.00545
ACCACTGG	-0.116
CCCATATA	0.0703
GGGAGCTA	-0.0146
GAAGCGCC	0.284
GCCGGAGA	0.164
ATACTGGC	-0.165
ATGGGCAA	-0.258
GCACCCAA	0.000135
GATAGCGA	0.0444
AGTTCGCA	-0.0238
CGAGGCCG	0.284
CGCACAGC	0.367
GAAAACGA	-0.0811

Block 4
Target: RNA binding protein fox-1 homolog 2, RRM domain, GST-SBP tag (RBFOX2, Homo sapiens, UniProt O43251-10, residues 100-194)
Method: RNA Bind-n-Seq
Form: RNA
Sample: in vitro
Concentration: 365 nM
Notes: natural RNA segment, single round, ends assumed
Baseline: no-protein control
Direction: higher = stronger binding
Constant ends, left off below: GGGAGUUCUACAGUCCGACGAUC … UGGAAUUCUCGGGUGCCAA
Residues (chain): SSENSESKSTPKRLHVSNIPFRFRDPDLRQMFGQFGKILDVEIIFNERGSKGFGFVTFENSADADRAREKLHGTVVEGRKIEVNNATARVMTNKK
Oligonucleotide	RBNS enrichment (R)
AUUCUGCCUCAAUCUUUUGCAAGCCCACCUGCCUCUCUCCUGCUGCUCCUCCAGCUGUAUCUGCACCUGCCUCUCUGUCCUGGCCAGGGGUGGACAACUGGGGUCCCCCA	1.19
CACCUUGAUGAUAAUGGACUGAACCUCUGAACCUGCAAGCCAGCCCCAAUUAAAUGUUGUCCUUAUAAGAGUUGCCUUGGUCACGGUGUCUGUUCACAGCAGUAAAAACU	0.406
AUUACUUCUAAAGAAUCAUCAGUGUAUAGAUUAGAAGUGCUCAUUACCUGCAACUUUUAAAAAAAAUUCAGUUAUAGCUGCUUUUGAAGAGGUUUCCAUUUUUAUUUAAA	0.886
CCUUUUUUGGCAGCUCAGAUGGUGUAAAUUUUAAAAUUUUGUAUAGGUAUUUCAUAACAAAAAUAUGUAUUUCUUUUUUGUUAUUUUAUCUUGAAAACGGUACAUAUUUU	0.943
UGUAGUAUUCAUUUAGCCAUGUCUGCCAUGGGUCCAGAAAUGGGAAAGGGAAUUGCUGUCCUUGCCCUGUGGUAUGCUGCCACCUCUUUGGGAAGCAGGCCUUGCCCCUG	0.244
UCUUGCCAAAUAAGGGCCUGCUCCUCGUGGGAGACCACAGGUGUACAGUCGGUGGCCUUGUACCUGGGGGAGGUGGCUUAGGGCUUCUACCUCUGGGGGUAGAGGGAAGA	0.275
UAUUCCAAUGGCGGAUGGUAAUAUUCACCAUCUCUAAUUCAUUGGUCACUGGUAGGUAAGCAUGAGUUAAGGAAAGUCAAAAAUGAAAAUAUAUUUUGCUGUGUAUAAAU	18.7
UCCUAAAAGGACAGAUCACUUCAGAAGAGUGAAUAACUGAUUUGCACAGCUGAAUCAGGAGACACAAAGAUGAGACUGUGUUUGGUUACAUUUUCCAAAGUUUCAUUGCA	0.933
CAGCAAGAAAGUACCCUGUUGGAUAGUCCAGAUGAAGAAGUGGCUCACUAUAUAUCCCUGCAUAGAUUCCUAAUUAUGCCGUUUCUAAAUCUUAACCGAUUUCUUGAACA	0.36
AACAUUUAAACCUGGAGACUCUUCGUGUCUUGAAUUAGGAUGUUUGUCCAGUAAUAAAAUAUAGAACCUUUCAAAAUGCUUUUCUGGUUUAUAAAGUACUGAAUUGCCCU	0.629
UUUUAGCAUGUGCUUUUAUAAAAAGUGGUAGCUACAGAUGAUAUAGCAAUCUACCUUAUAUAGAGCCUUCAGAAACUGUGAGUGGAAAUGAAUGCGCAGCGUAUGACUGU	1.13
AAGGUCUGUGGUGUCUCUGUCCGAUGGAGCAGUCUUAAAGCUUUAGUCAGCACAGGCCUAGCAAGGCCCUGACAGCCACAUCGACUGAAGAUUGUCAAGGCGAUAGAAAA	0.293

Block 5
Target: CCNA1, cyclin fold, Cln2 fusion (human)
Method: yeast growth competition, sequencing
Sample: yeast
Notes: weak parent motif
Baseline: not given
Direction: higher = stronger binding
Starting sequence: SAMHD1 docking peptide (human); ASKSRVQLFKDDP
Substitution	normalised enrichment score
R5V	0.268
K3I	-0.00777
F9N	0.0637
Q7E	0.264
R5N	-0.346
K3C	0.221
R5F	-0.183
Q7P	0.119
S2Q	0.219
K10N	0.25
S4R	0.697
K10V	0.153
V6C	0.258
D12R	0.013
D12Y	0.768
L8R	0.263
S2R	-0.0693

Repeated from above (block 2):
Oligonucleotide	fluorescence intensity [a.u.]
TAGCCGCTAAGGGTAGACATGACGCTGCTGTTCATC	60.9
CCAGAACGCCCAGAAAACGTGAAGGACACTACATAC	114
ACAAATTAATGGCACAACGTGGGTATGACGAAAAAG	105
AAATTACTAAGTTGGAATGTGGGTGACGCCGTATGA	68.6
CTTTCCCGATCTTGGTTCGTGGGTGTAGCACATTTG	63.3
CTTTCCCGATCTTTTCACGTGACGTTAGCACATTTG	3880
GGCCAAAGTGTTCGTCACAAAACAGTGGTCCTATAT	110
CGGGGTTAAGTTTGAAAGGTGGGTGGCTTGCAGCAG	54.2
CAATAGCCGGGCTGGCACGCTACTAGAAGGCGGTTC	65.4
GTAATAGTACCTTAACACATGACGAAGATGAAAATT	370
CTTTCCCGATCTTGCACCGTGGGTGTAGCACATTTG	63
GGTGGGCTATACTTCCGTGTGACGGATTTCACAAAG	102
TGCGCAACAACTTGATGAGTGGGTGTATGTCTAGAA	66.7
TGCCTCTGCGCTTTGCACGTTCAAAAGAAAAGCATA	91.7
TCTCCTAGGGGCAGTCTCGTGCTAATTAGCAGCTTT	225
TGCGCAACAACTTGTTGTGTGGGTGTATGTCTAGAA	75.1
